Measured values of several laboratories.
Compare with care: the assays were run in different laboratories. Several values in a cell are separate wells, animals, samples, runs or records. ± gives the spread as reported.
TDP1: Tyrosyl-DNA phosphodiesterase 1 (TDP1, Homo sapiens, UniProt Q9NUW8)
Chain of UniProt Q9NUW8 (whole entry, looked up): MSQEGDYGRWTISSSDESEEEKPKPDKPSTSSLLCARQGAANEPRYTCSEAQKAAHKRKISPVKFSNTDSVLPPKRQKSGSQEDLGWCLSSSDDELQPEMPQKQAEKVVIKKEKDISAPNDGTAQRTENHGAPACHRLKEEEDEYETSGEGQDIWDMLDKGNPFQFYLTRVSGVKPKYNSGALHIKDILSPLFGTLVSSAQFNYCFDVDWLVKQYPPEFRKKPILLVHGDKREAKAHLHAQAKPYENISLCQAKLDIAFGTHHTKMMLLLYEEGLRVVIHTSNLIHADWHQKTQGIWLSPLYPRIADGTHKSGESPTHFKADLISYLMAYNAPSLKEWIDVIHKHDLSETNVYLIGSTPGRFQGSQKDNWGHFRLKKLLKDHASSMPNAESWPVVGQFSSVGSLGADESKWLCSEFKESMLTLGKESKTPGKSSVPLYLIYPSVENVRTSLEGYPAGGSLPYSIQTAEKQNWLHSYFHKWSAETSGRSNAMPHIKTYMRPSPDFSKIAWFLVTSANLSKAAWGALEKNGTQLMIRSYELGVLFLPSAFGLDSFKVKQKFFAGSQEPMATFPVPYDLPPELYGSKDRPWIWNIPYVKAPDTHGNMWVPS
Gria1: Glutamate receptor 1 (Gria1, Rattus norvegicus, UniProt P19490)
Chain of UniProt P19490 (whole entry, looked up): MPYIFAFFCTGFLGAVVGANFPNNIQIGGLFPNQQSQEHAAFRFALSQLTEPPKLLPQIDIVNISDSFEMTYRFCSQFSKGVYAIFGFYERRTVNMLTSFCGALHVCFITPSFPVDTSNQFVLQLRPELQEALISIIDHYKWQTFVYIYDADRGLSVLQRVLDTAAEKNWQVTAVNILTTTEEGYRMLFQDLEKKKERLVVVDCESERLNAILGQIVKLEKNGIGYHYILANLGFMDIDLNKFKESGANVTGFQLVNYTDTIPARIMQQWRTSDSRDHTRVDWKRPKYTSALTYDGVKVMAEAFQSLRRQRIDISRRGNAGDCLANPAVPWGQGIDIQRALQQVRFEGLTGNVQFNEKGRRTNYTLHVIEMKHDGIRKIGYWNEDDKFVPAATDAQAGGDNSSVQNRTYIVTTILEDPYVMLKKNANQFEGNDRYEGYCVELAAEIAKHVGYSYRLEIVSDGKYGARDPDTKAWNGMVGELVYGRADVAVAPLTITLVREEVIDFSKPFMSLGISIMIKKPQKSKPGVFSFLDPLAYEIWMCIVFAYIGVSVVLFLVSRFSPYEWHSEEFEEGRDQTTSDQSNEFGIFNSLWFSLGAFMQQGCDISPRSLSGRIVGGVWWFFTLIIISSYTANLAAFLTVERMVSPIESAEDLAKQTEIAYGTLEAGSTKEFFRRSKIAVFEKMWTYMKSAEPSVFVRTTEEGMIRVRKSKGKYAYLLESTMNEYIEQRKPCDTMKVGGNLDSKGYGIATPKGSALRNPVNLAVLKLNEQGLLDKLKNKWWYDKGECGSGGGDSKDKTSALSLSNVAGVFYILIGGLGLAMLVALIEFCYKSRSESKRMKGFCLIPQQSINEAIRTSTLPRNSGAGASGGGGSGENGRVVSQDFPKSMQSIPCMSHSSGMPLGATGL
CASP6: Caspase-6 (CASP6, Homo sapiens, UniProt P55212)
Chain of UniProt P55212 (whole entry, looked up): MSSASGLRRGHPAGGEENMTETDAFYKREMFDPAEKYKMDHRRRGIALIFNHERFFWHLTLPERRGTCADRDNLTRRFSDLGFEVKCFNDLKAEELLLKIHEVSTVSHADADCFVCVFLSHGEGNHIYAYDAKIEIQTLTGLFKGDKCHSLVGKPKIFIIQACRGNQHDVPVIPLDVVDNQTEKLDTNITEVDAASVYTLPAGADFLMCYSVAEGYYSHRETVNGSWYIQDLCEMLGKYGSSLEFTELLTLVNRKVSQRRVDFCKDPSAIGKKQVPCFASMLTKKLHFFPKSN
glpG: Rhomboid protease GlpG (glpG, Escherichia coli, UniProt P09391)
Chain of UniProt P09391 (whole entry, looked up): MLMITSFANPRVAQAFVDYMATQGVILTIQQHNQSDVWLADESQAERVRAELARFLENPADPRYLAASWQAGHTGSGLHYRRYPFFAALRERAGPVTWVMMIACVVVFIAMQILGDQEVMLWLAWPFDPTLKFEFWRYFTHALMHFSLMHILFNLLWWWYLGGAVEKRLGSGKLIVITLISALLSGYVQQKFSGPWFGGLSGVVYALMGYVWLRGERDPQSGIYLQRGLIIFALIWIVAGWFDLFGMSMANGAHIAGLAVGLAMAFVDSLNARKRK
T1: dsDNA, duplex; chain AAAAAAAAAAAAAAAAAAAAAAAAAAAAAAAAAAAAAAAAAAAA; chain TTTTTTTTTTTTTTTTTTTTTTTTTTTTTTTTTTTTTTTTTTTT
Chain of UniProt Q9P258 (whole entry, looked up): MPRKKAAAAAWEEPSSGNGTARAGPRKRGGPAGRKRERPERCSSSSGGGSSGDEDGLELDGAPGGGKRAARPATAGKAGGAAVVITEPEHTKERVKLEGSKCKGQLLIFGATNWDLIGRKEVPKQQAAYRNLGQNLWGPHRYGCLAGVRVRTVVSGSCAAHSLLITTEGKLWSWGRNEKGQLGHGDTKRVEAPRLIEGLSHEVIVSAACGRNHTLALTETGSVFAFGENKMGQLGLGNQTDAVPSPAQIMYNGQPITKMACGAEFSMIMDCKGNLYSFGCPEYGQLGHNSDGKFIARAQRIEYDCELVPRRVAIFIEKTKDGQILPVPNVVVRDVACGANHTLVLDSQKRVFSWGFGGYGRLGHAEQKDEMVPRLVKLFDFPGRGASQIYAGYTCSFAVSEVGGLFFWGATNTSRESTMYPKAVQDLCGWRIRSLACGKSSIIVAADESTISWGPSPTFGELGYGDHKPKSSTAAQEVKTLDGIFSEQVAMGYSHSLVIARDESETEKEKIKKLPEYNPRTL
Chain of UniProt P46089 (whole entry, looked up): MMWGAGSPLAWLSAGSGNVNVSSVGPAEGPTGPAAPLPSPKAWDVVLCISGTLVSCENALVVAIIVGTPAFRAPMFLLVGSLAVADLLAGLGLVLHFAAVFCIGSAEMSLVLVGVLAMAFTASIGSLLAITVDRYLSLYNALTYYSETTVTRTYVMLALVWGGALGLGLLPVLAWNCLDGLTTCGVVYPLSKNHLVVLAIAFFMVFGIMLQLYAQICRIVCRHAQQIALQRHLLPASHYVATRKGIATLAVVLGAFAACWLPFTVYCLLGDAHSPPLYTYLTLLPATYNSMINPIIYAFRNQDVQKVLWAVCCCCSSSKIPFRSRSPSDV
Chain of UniProt Q13148 (whole entry, looked up): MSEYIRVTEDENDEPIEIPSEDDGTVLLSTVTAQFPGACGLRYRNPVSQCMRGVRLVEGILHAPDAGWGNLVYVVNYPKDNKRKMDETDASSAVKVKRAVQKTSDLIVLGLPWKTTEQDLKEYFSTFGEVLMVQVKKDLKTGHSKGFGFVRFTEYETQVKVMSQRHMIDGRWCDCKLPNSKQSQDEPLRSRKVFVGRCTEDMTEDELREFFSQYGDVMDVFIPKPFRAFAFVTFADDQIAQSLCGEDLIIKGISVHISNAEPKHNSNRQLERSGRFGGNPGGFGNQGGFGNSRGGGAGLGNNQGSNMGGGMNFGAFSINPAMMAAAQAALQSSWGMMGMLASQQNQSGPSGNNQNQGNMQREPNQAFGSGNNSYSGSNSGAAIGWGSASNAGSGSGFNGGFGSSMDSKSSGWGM
Chain of UniProt P40261 (whole entry, unmodified, looked up): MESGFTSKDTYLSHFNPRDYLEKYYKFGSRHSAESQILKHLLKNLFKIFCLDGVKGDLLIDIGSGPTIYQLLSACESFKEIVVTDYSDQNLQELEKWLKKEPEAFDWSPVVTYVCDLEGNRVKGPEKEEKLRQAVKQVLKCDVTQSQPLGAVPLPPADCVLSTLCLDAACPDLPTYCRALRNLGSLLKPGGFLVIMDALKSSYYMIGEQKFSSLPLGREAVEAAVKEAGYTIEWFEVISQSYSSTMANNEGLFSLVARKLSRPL
Chain of UniProt Q9NX63 (whole entry, looked up): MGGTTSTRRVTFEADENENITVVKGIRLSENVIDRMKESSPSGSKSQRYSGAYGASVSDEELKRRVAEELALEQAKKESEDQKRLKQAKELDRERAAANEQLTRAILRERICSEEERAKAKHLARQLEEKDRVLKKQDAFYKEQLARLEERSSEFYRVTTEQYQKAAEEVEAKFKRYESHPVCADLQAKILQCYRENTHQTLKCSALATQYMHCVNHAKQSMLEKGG
Chain of UniProt P0A7A9 (whole entry, looked up): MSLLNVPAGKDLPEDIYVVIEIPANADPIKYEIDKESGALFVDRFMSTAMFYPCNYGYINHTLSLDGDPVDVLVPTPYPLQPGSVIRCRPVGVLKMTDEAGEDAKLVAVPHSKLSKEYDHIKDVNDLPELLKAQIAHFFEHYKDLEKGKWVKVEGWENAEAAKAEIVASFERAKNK
Chain of UniProt P00698 (whole entry, looked up): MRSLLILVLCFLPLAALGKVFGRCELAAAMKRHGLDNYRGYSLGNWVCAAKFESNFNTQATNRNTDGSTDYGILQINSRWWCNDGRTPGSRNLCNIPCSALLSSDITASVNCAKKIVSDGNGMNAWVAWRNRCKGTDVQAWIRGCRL
Chain of UniProt Q13639 (whole entry, looked up): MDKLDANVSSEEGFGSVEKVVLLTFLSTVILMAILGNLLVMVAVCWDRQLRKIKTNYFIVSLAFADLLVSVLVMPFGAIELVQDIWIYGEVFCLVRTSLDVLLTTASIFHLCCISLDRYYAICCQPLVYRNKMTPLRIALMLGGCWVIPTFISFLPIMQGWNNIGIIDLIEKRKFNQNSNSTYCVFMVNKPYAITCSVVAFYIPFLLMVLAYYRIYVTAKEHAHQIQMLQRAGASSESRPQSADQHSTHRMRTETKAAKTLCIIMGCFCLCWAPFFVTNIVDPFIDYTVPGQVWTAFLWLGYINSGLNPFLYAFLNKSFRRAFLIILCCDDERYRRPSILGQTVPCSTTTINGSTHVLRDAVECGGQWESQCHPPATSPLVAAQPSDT
Chain of UniProt Q9NRG0 (whole entry, looked up): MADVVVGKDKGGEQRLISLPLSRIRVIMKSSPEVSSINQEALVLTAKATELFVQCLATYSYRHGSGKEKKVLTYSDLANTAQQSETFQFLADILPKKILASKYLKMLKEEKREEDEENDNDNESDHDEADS
Chain of UniProt P62314 (whole entry, looked up): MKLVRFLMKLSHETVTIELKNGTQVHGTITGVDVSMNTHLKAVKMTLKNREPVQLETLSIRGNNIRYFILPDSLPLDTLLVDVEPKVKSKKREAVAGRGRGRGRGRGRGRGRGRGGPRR

O=C(O)c1ccc(Nc2c(-c3ccc(CON=Cc4ccc(-n5cncn5)cc4)cc3)nc3cc(-c4ccccc4)ccn23)cc1 (mixture of isomers)  inhibition (TDP1; enzyme activity, inhibitor; 100 µM, unpurified compound): 75.3%
CC(C=CC=C(C)C=CC1=C(C)CCCC1(C)C)=CC=O  plasma membrane localization (Rhodopsin (RHO, Homo sapiens, UniProt P08100, P23H); immunostaining, item: opsin; COS-7 transfected; 0.05 µM, unit not given; baseline: surface over total stained cells): 0
O=C(O)c1ccc(Nc2c(-c3ccc(CON=Cc4cc([N+](=O)[O-])ccc4N4CCN(c5ccccc5)CC4)cc3)nc3cc(-c4ccccc4)ccn23)cc1 (mixture of isomers)  inhibition (TDP1; enzyme activity, inhibitor; 100 µM, unpurified compound): 84%
OCC(O)CO  particle diameter (Lysozyme C (LYZ, Gallus gallus, UniProt P00698); static light scattering; pH 7, 25 °C, together with: NaCl 50 mM): 6.1 nm
COc1cccc2c(=O)c(CO)coc12  ΔTm (Nicotinamide N-methyltransferase, SAH-bound (NNMT, Homo sapiens, UniProt P40261); differential scanning fluorimetry; 1 mM, together with: 100 µM SAH): -0.2 °C
O=C(O)c1ccc(Nc2c(-c3ccccc3)nc3ccc(CON=Cc4cc(C(F)(F)F)ccc4F)cn23)cc1 (mixture of isomers)  inhibition (TDP1; enzyme activity, inhibitor; 100 µM, unpurified compound): -3.2%
CC(=O)[C@]12NC(C)(C)C[C@@]1(C)C(=O)C1=C2c2c(c3c4n2C(C)(C)CC2=C4[C@@]4(CC(C)(C)N[C@@](C)(C4)C2=O)CC3(C)C)C(=O)C(C)(C)N1 (racemic)  activation (Kappa-type opioid receptor (OPRK1, Homo sapiens, UniProt P41145); cAMP level, agonist, LANCE Ultra cAMP; CHO; 10 µM): 4.54%
CCCCCCCCCCCCCCCC(=O)OCC(CSC[C@H](N)C(=O)N[C@@H](CO)C(=O)N[C@@H](CCCCN)C(=O)N[C@@H](CCCCN)C(=O)N[C@@H](CCCCN)C(=O)N[C@@H](CCCCN)C(=O)NCCCCCC(=O)N[C@@H](CCCCN)C(=O)N[C@@H](CC(C)C)C(=O)N[C@H](C(=O)N[C@@H](Cc1ccccc1)C(=O)N[C@@H](Cc1ccccc1)C(=O)N[C@@H](Cc1ccc2ccccc2c1)C(=O)O)C(C)C)OC(=O)CCCCCCCCCCCCCCC (stereo partly shown)  fibril diameter (Amyloid-beta precursor protein, fibrillar amyloid-beta (APP, Homo sapiens, UniProt P05067); TEM; 2.0 eq, 28 h, fibril 6, together with: APP 20 µM): 10 nm
COc1ccc(OC)c(C2=Nn3c(nnc3C3CCCCC3)SC2)c1  Hill slope (Uncharacterized protein (Trypanosoma brucei brucei, UniProt Q386Q8); inhibitor, coupled colorimetric; Trypanosoma brucei): 0.65
CCCCCCOc1ccc(C(=O)OCCN2CC=CCC2)cc1  basal binding (Muscarinic acetylcholine receptor M3 (CHRM3, Homo sapiens, UniProt P20309); membranes; 1 µM, 15 h, no carbachol; baseline: control): 0.95 ± 0.03 fold
O=C1c2sc(-c3ccc(N4CCC(CO)CC4)nc3F)nc2CCN1c1cccnc1  inhibition (5-hydroxytryptamine receptor 4, isoform 5-HT4e (HTR4, Homo sapiens, UniProt Q13639); radioligand binding, antagonist; 1 µM): -14%
COC(=O)Cc1cc2c(cc1C(=O)c1cccc(I)c1)OCO2  current amplitude after recovery (Gria1; glutamate-evoked current, whole-cell patch clamp; HEK-293T; concentration not given, glutamate alone after washout, together with: glutamate): 877 ± 39 pA
CC(=O)N[C@H](C(=O)N[C@@H](CCCCN)C(=O)N[C@@H](CCC(N)=O)C(=O)N[C@@H](CC(=O)O)C(=O)COC(=O)c1c(C)cccc1C)C(C)C  kinact/KI (CASP6; enzyme activity, inhibitor): 2000 M⁻¹ s⁻¹
O=C(O)c1ccc(Nc2c(-c3ccccc3)nc3ccc(CON=Cc4cnc(O)c(Cl)c4)cn23)cc1 (mixture of isomers)  inhibition (TDP1; enzyme activity, inhibitor; 100 µM, unpurified compound): 1.4%
CCCCCC=CC=C1C(=O)C=CC1CC=CCCCC(=O)O (stereo not shown)  isoTOP-ABPP competition ratio (Histone H3.2 (H3C15, Homo sapiens, UniProt Q71DI3); competitive isoTOP-ABPP, item: HIST2H3C cysteine peptide; Ramos soluble proteome; 100 µM, together with: iodoacetamide probe; baseline: DMSO over compound-treated, higher = stronger cysteine blockade): 2.1
CN(Cc1cc(C2CC2)on1)C(=O)c1cccc(-c2ccc3c(c2)CCO3)c1  reaction rate (ACS1 (Saccharomyces cerevisiae, UniProt Q01574); enzyme activity, inhibitor, coupled pyrophosphate; 200 nM; higher is more activity): 0.0199 a.u.
N[C@H]1CC[C@H](Nc2nccc(-c3cccnc3Oc3ccc(NC(=O)NC4CC4)c4ccccc34)n2)CC1  log2 LFQ intensity (Protein RCC2 (RCC2, Homo sapiens, UniProt Q9P258); kinobead competition pulldown; HEK293/HCT116 lysate mixture; 10 µM, 1 h, 4 °C; lower = stronger competition): 23.5 and 23.1 and 23.2
CC(=O)N[C@@H](CC(=O)O)C(=O)N[C@@H](CCC(=O)O)C(=O)N[C@H](C(=O)N[C@@H](CC(=O)O)C(=O)COC(=O)c1c(C)cccc1C)[C@@H](C)OCc1ccccc1  kinact/KI (CASP6; enzyme activity, inhibitor): 206000 M⁻¹ s⁻¹
Cc1cnc2nc1Nc1cccc(c1)COC/C=C/COCc1cc(ccc1OCCN1CCOCC1)N2  remaining binding (Epidermal growth factor receptor (EGFR, Homo sapiens, UniProt P00533); binding; 0.1 µM): 77%
CC(C)Oc1cc(Cl)ccc1CNc1cc(-c2ccccc2)nc2ncnn12  cAMP luminescence (G-protein coupled receptor 3 (GPR3, Homo sapiens, UniProt P46089); cAMP reporter; human cells; 10 pM; higher is more cAMP): 33600 a.u. and 61600 a.u. and 16500 a.u. and 27700 a.u. and 29800 a.u. and 34200 a.u. and 44900 a.u. and 43500 a.u.
COc1cc(Cl)cc(C=NOCc2ccc(-c3nc4cc(-c5ccccc5)ccn4c3Nc3ccc(C(=O)O)cc3)cc2)c1O (mixture of isomers)  inhibition (TDP1; enzyme activity, inhibitor; 100 µM, unpurified compound): 37.6%
C=CC(=O)N1CC2(CCN(c3nc(OC4CCN(CCCOC)CC4)nc4c(OCC(F)(F)F)c(-c5c(C)ccc6[nH]ncc56)c(C5CC5)cc34)CC2)C1  association rate constant (GTPase KRas, GDP-bound (KRAS, Homo sapiens, UniProt P01116, G12V); binding, surface plasmon resonance): 11800 ± 630 M⁻¹ s⁻¹
Cc1ccc(S(=O)(=O)N2CC(NC(=O)c3ccc(F)cc3)C2=O)cc1 (stereo not shown)  IC50 (glpG; enzyme activity, inhibitor, gel-based chimeric protein substrate): inactive
O=C(O)Cc1cc2c(cc1C(=O)c1cccc(Cl)c1)OCO2  current amplitude after recovery (Gria1; glutamate-evoked current, whole-cell patch clamp; HEK-293T; concentration not given, glutamate alone after washout, together with: glutamate): 911 ± 29 pA
CCCCOc1ccc(C(=O)OCC[N+]2(C)CC=CCC2)cc1 (stereo not shown)  basal binding (Muscarinic acetylcholine receptor M5 (CHRM5, Homo sapiens, UniProt P08912); membranes; 10 µM, 15 h, no carbachol; baseline: control): 1.04 ± 0.03 fold
O=C(O)c1ccc(Nc2c(-c3ccc(CON=Cc4nc5ccccc5s4)cc3)nc3cc(-c4ccccc4)ccn23)cc1  inhibition (TDP1; enzyme activity, inhibitor; 100 µM, unpurified compound): 87.1%
CCCCCC(O)/C=C/C=O (stereo not shown)  probe labelling ratio (Small nuclear ribonucleoprotein Sm D1 (Homo sapiens, UniProt P62314); acylphosphate-ATP probe SILAC-ABPP, item: SNRPD1; ZAK-transfected HEK293T; 100 µM, together with: acylphosphate-ATP probe; baseline: DMSO over compound-treated): 0.64
Cc1cc(C)cc(COc2cc3c(cc2OCc2cc(C)cc(C)c2)C2CC(O)(Cc4cn(CCOCCOCCNC(=O)CCCCC5SCC6NC(=O)NC65)nn4)CC(C)N2CC3)c1 (stereo not shown)  SILAC ratio (MICOS complex subunit MIC19 (Homo sapiens, UniProt Q9NX63); biotinylated probe pull-down, item: CHCHD3; 10 µM probe; baseline: heavy over light): 1.69
CC(=O)N[C@@H](CC(C)C)C(=O)N[C@@H](CCC(=O)O)C(=O)N[C@@H](COCc1ccccc1)C(=O)N[C@@H](CC(=O)O)C(=O)COC(=O)c1c(C)cccc1C  kinact/KI (CASP6; enzyme activity, inhibitor): 351000 M⁻¹ s⁻¹
CC[C@H](C)[C@@H]1NC(=O)[C@H](Cc2ccc(O)cc2)NC(=O)[C@H](Cc2ccccc2)NC(=O)[C@H](Cc2ccccc2)NC(=O)[C@H](Cc2ccccc2)NC(=O)CSC[C@@H](C(=O)N[C@@H](Cc2c[nH]cn2)C(N)=O)NC(=O)[C@H](CC(N)=O)NC(=O)[C@H](Cc2c[nH]c3ccccc23)NC1=O  ΔTm (Bromodomain-containing protein 4, BD1 (BRD4, Homo sapiens, UniProt O60885); thermal stability, DSF; 100 µM): 0.59 °C
COC(=O)CC(NS(=O)(=O)c1ccc(C)cc1)c1ccccc1 (stereo not shown)  IC50 (glpG; enzyme activity, inhibitor, gel-based chimeric protein substrate): inactive
COc1cccc2c(C=NOCc3ccc4nc(-c5ccccc5)c(Nc5ccc(C(=O)O)cc5)n4c3)ccc(N(C)C)c12  inhibition (TDP1; enzyme activity, inhibitor; 100 µM, unpurified compound): 4.5%
O=C1c2sc(-c3ccc(N4CCC(F)C4)nc3F)nc2CCN1c1cccnc1 (stereo not shown)  specific binding (TAR DNA-binding protein 43, aggregated (TARDBP, Homo sapiens, UniProt Q13148); radioligand binding; human, FTLD-TDP type B extract; together with: radioligand 9.68 nM): 1.61 nM and 1.72 nM
Cc1cc[n+](-c2nc([O-])sc2C=NOCc2ccc(-c3nc4cc(-c5ccccc5)ccn4c3Nc3ccc(C(=O)O)cc3)cc2)cc1  inhibition (TDP1; enzyme activity, inhibitor; 100 µM, unpurified compound): 68.1%
CC(C)[C@@H]1NC(=O)[C@H](Cc2ccccc2)NC(=O)CSC[C@@H](C(N)=O)NC(=O)[C@H](CCC(=O)O)NC(=O)[C@H](CO)NC(=O)[C@H](Cc2c[nH]c3cccc(Cl)c23)NC(=O)[C@H](C2CCCCC2)NC(=O)[C@H](C(C)C)NC(=O)[C@H](Cc2ccc(O)cc2)NC(=O)[C@H](CC(=O)O)NC(=O)[C@H](Cc2c[nH]c3ccccc23)NC(=O)[C@H](Cc2ccc(N)nc2)NC(=O)[C@H](Cc2c[nH]c3ccc(Cl)cc23)NC(=O)[C@H](CCC(=O)O)NC1=O  remaining activity (Interleukin-1 receptor-like 2 (IL1RL2, Homo sapiens, UniProt Q9HB29); reporter gene (SEAP), inhibitor, HEK-Blue IL-36R reporter; HEK-Blue IL-36R cells; 3.7 µM, 6 h, together with: IL-36β 30 ng/mL): 93.8%
C=C1C[C@@]2(C(=O)OC)C=C(C(=O)Nc3cccc(C(=O)Nc4ccc(Nc5nccc(-c6cccnc6)n5)c(C)c4)c3)C(=O)[C@@H]1C2  kon (Mitogen-activated protein kinase 8 (MAPK8, Homo sapiens, UniProt P45983, C116S); binding, SPR; 100, 300, 1000 nM, 1:1 binding model): 376000 M⁻¹ s⁻¹
CCCCCCCCCCCCC/C=C/C=O  isoTOP-ABPP competition ratio (Chromatin accessibility complex protein 1, Cys55 (CHRAC1, Homo sapiens, UniProt Q9NRG0); competitive isoTOP-ABPP; Ramos soluble proteome; 100 µM, 60 min, together with: iodoacetamide probe; baseline: DMSO over compound-treated, higher = stronger cysteine blockade): 1
CC(=O)NCCCC[C@H](NC(C)=O)C(=O)N[C@@H](CCCC(=O)O)C(=O)N[C@@H](C)C(=O)N[C@@H](CC(=O)O)C(=O)COC(=O)c1c(C)cccc1C  kinact/KI (CASP6; enzyme activity, inhibitor): 3550 M⁻¹ s⁻¹
COC(=O)Cc1cc2c(cc1C(=O)c1ccccc1Br)OCO2  deactivation time constant (Gria1; glutamate-evoked current, whole-cell patch clamp; HEK-293T; concentration not given, weighted tau, 1 ms pulse, together with: glutamate): 2.7 ± 0.1 ms
COc1ccc(C(=O)CC2(O)C(=O)Nc3c(Br)cc(C)cc32)cc1 (stereo not shown)  Hill slope (Inorganic pyrophosphatase (ppa, Escherichia coli, UniProt P0A7A9); enzyme activity; counter-screen): -0.6
CC(C)NCCCn1c(Sc2cc3c(cc2I)OCO3)nc2c(N)ncnc21  TΔS (HSP90AA1/HSP90B1 (Homo sapiens, UniProt P07900+P41148, E62I/S52A/Y61L); ITC): -2.02 ± 1.03 kcal/mol
Cc1cc(=O)oc2cc(NC(=O)CCCCCCCC(=O)NO)ccc12  binding stoichiometry (Histone deacetylase 8 (HDAC8, Homo sapiens, UniProt Q9BY41); ITC; triethanolamine buffer; concentration not given, pH 7.5): 0.81
CCCCCCCCn1c(CC)c(C)[n+](CCCCCCCC)c1CCC  binding (T1, dsDNA, duplex; competition with EtBr, competitor, EtBr displacement fluorescence; Na+ 50 mM, together with: EtBr): binds

For quick reference, copied from above:
Cc1cc(C)cc(COc2cc3c(cc2OCc2cc(C)cc(C)c2)C2CC(O)(Cc4cn(CCOCCOCCNC(=O)CCCCC5SCC6NC(=O)NC65)nn4)CC(C)N2CC3)c1 (stereo not shown)  SILAC ratio (MICOS complex subunit MIC19 (Homo sapiens, UniProt Q9NX63); biotinylated probe pull-down, item: CHCHD3; 10 µM probe; baseline: heavy over light): 1.69
Cc1cc[n+](-c2nc([O-])sc2C=NOCc2ccc(-c3nc4cc(-c5ccccc5)ccn4c3Nc3ccc(C(=O)O)cc3)cc2)cc1  inhibition (TDP1; enzyme activity, inhibitor; 100 µM, unpurified compound): 68.1%
CC(=O)NCCCC[C@H](NC(C)=O)C(=O)N[C@@H](CCCC(=O)O)C(=O)N[C@@H](C)C(=O)N[C@@H](CC(=O)O)C(=O)COC(=O)c1c(C)cccc1C  kinact/KI (CASP6; enzyme activity, inhibitor): 3550 M⁻¹ s⁻¹
COc1ccc(C(=O)CC2(O)C(=O)Nc3c(Br)cc(C)cc32)cc1 (stereo not shown)  Hill slope (Inorganic pyrophosphatase (ppa, Escherichia coli, UniProt P0A7A9); enzyme activity; counter-screen): -0.6
CCCCCCCCCCCCC/C=C/C=O  isoTOP-ABPP competition ratio (Chromatin accessibility complex protein 1, Cys55 (CHRAC1, Homo sapiens, UniProt Q9NRG0); competitive isoTOP-ABPP; Ramos soluble proteome; 100 µM, 60 min, together with: iodoacetamide probe; baseline: DMSO over compound-treated, higher = stronger cysteine blockade): 1
